Assay results collected from several papers.
Lines come from different studies, so protocols differ. Several values in a cell are separate wells, animals, samples, runs or records. ± marks the error that the study gave.
UniProt Q12809, sequence (whole entry, looked up): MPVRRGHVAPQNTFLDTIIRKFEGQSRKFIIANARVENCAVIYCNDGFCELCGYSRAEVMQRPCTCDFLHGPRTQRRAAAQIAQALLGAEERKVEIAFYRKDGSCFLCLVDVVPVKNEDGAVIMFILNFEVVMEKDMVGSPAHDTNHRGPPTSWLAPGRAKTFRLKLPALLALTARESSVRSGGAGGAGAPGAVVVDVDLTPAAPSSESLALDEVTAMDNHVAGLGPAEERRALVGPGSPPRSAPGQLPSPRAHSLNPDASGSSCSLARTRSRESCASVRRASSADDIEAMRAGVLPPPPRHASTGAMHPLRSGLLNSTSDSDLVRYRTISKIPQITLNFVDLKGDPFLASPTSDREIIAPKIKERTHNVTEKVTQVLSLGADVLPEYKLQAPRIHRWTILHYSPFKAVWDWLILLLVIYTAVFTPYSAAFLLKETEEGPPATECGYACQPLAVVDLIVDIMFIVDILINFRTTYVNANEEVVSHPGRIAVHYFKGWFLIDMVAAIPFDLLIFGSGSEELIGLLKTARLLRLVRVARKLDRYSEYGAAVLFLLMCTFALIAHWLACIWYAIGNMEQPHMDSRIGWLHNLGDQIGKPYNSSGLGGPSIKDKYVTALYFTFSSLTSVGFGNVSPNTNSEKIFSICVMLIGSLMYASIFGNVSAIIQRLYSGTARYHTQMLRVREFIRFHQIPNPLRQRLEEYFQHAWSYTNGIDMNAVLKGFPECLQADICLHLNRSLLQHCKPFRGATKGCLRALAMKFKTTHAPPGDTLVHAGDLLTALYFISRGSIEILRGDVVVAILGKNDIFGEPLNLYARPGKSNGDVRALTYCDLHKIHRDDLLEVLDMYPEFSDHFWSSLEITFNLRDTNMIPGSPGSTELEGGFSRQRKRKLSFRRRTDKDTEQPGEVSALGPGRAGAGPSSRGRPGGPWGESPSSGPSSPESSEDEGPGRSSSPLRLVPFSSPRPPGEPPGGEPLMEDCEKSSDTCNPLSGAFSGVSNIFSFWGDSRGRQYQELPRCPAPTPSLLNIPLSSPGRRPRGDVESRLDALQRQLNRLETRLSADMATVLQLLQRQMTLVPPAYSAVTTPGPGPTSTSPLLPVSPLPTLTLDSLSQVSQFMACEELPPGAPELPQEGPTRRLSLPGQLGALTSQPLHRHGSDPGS

CC[C@H](C)[C@H](NC(=O)[C@H](C)NC(=O)[C@H](CCC(=O)O)NC(=O)[C@H](CCC(=O)O)NC(=O)[C@H](CC(C)C)NC(=O)[C@H](CCCCN)NC(=O)[C@H](CCCCN)NC(=O)[C@H](CCSC)NC(=O)[C@H](CCC(=O)O)NC(=O)[C@H](Cc1ccc(O)cc1)NC(=O)[C@H](CCC(=O)O)NC(=O)[C@H](CC(C)C)NC(=O)[C@H](CC(=O)O)NC(=O)[C@H](CC(C)C)NC(=O)[C@H](Cc1ccccc1)NC(=O)[C@@H](NC(=O)[C@@H](NC(=O)[C@H](CC(N)=O)NC(=O)[C@@H](NC(=O)[C@H](CCC(N)=O)NC(=O)[C@H](CC(=O)O)NC(=O)[C@H](CC(C)C)NC(=O)[C@@H](N)CO)[C@@H](C)CC)C(C)C)[C@@H](C)O)C(=O)N[C@@H](CCCCN)C(=O)N[C@@H](CCCCN)C(=O)N[C@@H](CC(C)C)C(=O)N[C@@H](CCC(=O)O)C(=O)N[C@@H](CCC(=O)O)C(=O)N[C@@H](CO)C(=O)N[C@@H](Cc1ccc(O)cc1)C(=O)N[C@H](C(=O)N[C@@H](CC(=O)O)C(=O)N[C@@H](CC(C)C)C(=O)N[C@@H](CCCCN)C(=O)N[C@@H](CCC(=O)O)C(=O)N[C@@H](CC(C)C)C(=O)NCC(=O)N[C@@H](CO)C(=O)NCC(=O)N[C@@H](CO)C(=O)NCC(=O)NCCOCCOCCOCCOCCC(=O)N[C@@H](CSCC(=O)O[C@H]1CC[C@@]2(C)C(=CC[C@H]3[C@@H]4CC[C@H]([C@H](C)CCCC(C)C)[C@@]4(C)CC[C@@H]32)C1)C(N)=O)[C@@H](C)CC
fold reduction of activity (SARS-CoV-2; pseudovirus infection; concentration not given, 37 °C, storage): ~92 fold

CC(C)C(=O)OC[C@H]1O[C@@H](n2ccc(NO)nc2=O)[C@H](O)[C@@H]1O
remaining compound (rat plasma; 100 µM, 1 h, no CES inhibitor): 0%

CNC(=O)[C@@H](NC(=O)[C@H](CC(C)C)[C@H](O)C(=O)NO)C(C)(C)C
viability (C2C12; 100 µM, without venom, unit not given; reference: cells alone (=100)): 99.5 and 96.8 and 91.5

Nc1ncnc2c([C@@H]3N[C@H](CO)[C@@H](O)[C@H]3O)c[nH]c12
viral RNA copies (Marburg virus; HeLa, Musoke; 6.3 µM, 1 h): 8.86e+06 copies/mL

CC(C)C[C@H](NC(=O)[C@H](CC(=O)O)NC(=O)CNC(=O)[C@H](CCCNC(=N)N)NC(=O)[C@H](CC(C)C)NC(=O)[C@H](CC(N)=O)NC(=O)[C@@H]1CCCN1C(=O)[C@@H](NC(=O)[C@H](C)NC(=O)[C@H](CC(N)=O)NC(=O)c1ccc(F)cc1)C(C)C)C(=O)N[C@@H](CCC(N)=O)C(=O)N[C@H](C(=O)N[C@@H](CC(C)C)C(=O)N[C@@H](C)C(=O)N[C@@H](CCC(N)=O)C(=O)N[C@@H](CCCCN)C(=O)N[C@H](C(=O)N[C@@H](C)C(=O)N[C@@H](CCCNC(=N)N)C(=O)N[C@H](C(=O)NCCOCCOCCOCCOCCOCCOCCOCCOCCOCCOCCOCCOCCOCCOCCOCCOCCOCCOCCOCCOCCOCCOCCOCCOCCOCCOCCOCCOCCC(N)=O)[C@@H](C)O)C(C)C)C(C)C [fluorine-18 labelled]
lung uptake (female athymic nude mouse, lung; intravenous, range over all time points): 2 to 3 %ID/g

tricresyl phosphate
IC50 (Voltage-gated inwardly rectifying potassium channel KCNH2 (KCNH2, Homo sapiens, UniProt Q12809); thallium influx, inhibitor, primary qHTS; hERG-transduced cells; two runs): 14 ± 9 µM

CC[C@H](C)[C@H](NC(=O)[C@H](CC(C)C)NC(=O)[C@H](Cc1c[nH]c2ccccc12)NC(=O)[C@H](CCC(N)=O)NC(=O)[C@@H](NC(=O)[C@H](Cc1ccccc1)NC(=O)[C@H](C)NC(=O)[C@H](CCCCNC(=O)COCCOCCNC(=O)COCCOCCNC(=O)CC[C@H](NC(=O)CCCCCCCCCCCCCCCCCCC(=O)O)C(=O)O)NC(=O)[C@H](CCC(N)=O)NC(=O)[C@H](C)NC(=O)[C@@H](NC(=O)[C@H](CCCCN)NC(=O)[C@H](CC(=O)O)NC(=O)[C@H](CC(C)C)NC(=O)C(C)(C)NC(=O)[C@@H](NC(=O)[C@H](CO)NC(=O)[C@H](Cc1ccc(O)cc1)NC(=O)[C@H](CC(=O)O)NC(=O)[C@H](CO)NC(=O)[C@@H](NC(=O)[C@H](Cc1ccccc1)NC(=O)[C@@H](NC(=O)CNC(=O)[C@H](CCC(=O)O)NC(=O)C(C)(C)NC(=O)[C@@H](N)Cc1ccc(O)cc1)[C@@H](C)O)[C@@H](C)O)[C@@H](C)CC)[C@@H](C)CC)C(C)C)C(=O)N[C@@H](C)C(=O)NCC(=O)NCC(=O)N1CCC[C@H]1C(=O)N[C@@H](CO)C(=O)N[C@@H](CO)C(=O)NCC(=O)N[C@@H](C)C(=O)N1CCC[C@H]1C(=O)N1CCC[C@H]1C(=O)N1CCC[C@H]1C(=O)N[C@@H](CO)C(N)=O
terminal half-life (human, plasma; subcutaneous, 15.0 mg once weekly, week 23, multiple doses): 5.25 days

CC(C)C[C@H](NC(=O)CNC(=O)[C@H](CCCCN)NC(=O)[C@H](CC(C)C)NC(=O)[C@H](CC(C)C)NC(=O)[C@H](CC(C)C)NC(=O)[C@H](CCCCN)NC(=O)[C@@H](N)CCCCN)C(=O)N[C@@H](CC(C)C)C(=O)N[C@@H](CC(C)C)C(=O)N[C@@H](CC(C)C)C(=O)N[C@@H](CCCCN)C(=O)N[C@@H](CCCCN)C(=O)O
lowest cytotoxic concentration (HEK-293T; cell death; 24 h, 10% cell death): 256 µg/mL

Cn1cnc(Cn2c(=O)[nH]/c(=N\c3cc4cn(C)nc4cc3Cl)n(Cc3cc(F)c(F)cc3F)c2=O)n1
treatment-related TEAE, Severe severity (human, normal renal function; oral, 375 mg): 0%

CC[C@H](C)[C@H](NC(=O)[C@H](CC(C)C)NC(=O)[C@H](Cc1c[nH]c2ccccc12)NC(=O)[C@H](CCC(N)=O)NC(=O)[C@@H](NC(=O)[C@H](Cc1ccccc1)NC(=O)[C@H](C)NC(=O)[C@H](CCCCNC(=O)COCCOCCNC(=O)COCCOCCNC(=O)CC[C@H](NC(=O)CCCCCCCCCCCCCCCCCCC(=O)O)C(=O)O)NC(=O)[C@H](CCC(N)=O)NC(=O)[C@H](C)NC(=O)[C@@H](NC(=O)[C@H](CCCCN)NC(=O)[C@H](CC(=O)O)NC(=O)[C@H](CC(C)C)NC(=O)C(C)(C)NC(=O)[C@@H](NC(=O)[C@H](CO)NC(=O)[C@H](Cc1ccc(O)cc1)NC(=O)[C@H](CC(=O)O)NC(=O)[C@H](CO)NC(=O)[C@@H](NC(=O)[C@H](Cc1ccccc1)NC(=O)[C@@H](NC(=O)CNC(=O)[C@H](CCC(=O)O)NC(=O)C(C)(C)NC(=O)[C@@H](N)Cc1ccc(O)cc1)[C@@H](C)O)[C@@H](C)O)[C@@H](C)CC)[C@@H](C)CC)C(C)C)C(=O)N[C@@H](C)C(=O)NCC(=O)NCC(=O)N1CCC[C@H]1C(=O)N[C@@H](CO)C(=O)N[C@@H](CO)C(=O)NCC(=O)N[C@@H](C)C(=O)N1CCC[C@H]1C(=O)N1CCC[C@H]1C(=O)N1CCC[C@H]1C(=O)N[C@@H](CO)C(N)=O
Cmax (human, ESRD requiring dialysis, plasma; subcutaneous, 5 mg single dose, geometric mean): 347 ng/mL

CC[C@H](C)[C@H](NC(=O)[C@H](CC(C)C)NC(=O)[C@H](Cc1c[nH]c2ccccc12)NC(=O)[C@H](CCC(N)=O)NC(=O)[C@@H](NC(=O)[C@H](Cc1ccccc1)NC(=O)[C@H](C)NC(=O)[C@H](CCCCNC(=O)COCCOCCNC(=O)COCCOCCNC(=O)CC[C@H](NC(=O)CCCCCCCCCCCCCCCCCCC(=O)O)C(=O)O)NC(=O)[C@H](CCC(N)=O)NC(=O)[C@H](C)NC(=O)[C@@H](NC(=O)[C@H](CCCCN)NC(=O)[C@H](CC(=O)O)NC(=O)[C@H](CC(C)C)NC(=O)C(C)(C)NC(=O)[C@@H](NC(=O)[C@H](CO)NC(=O)[C@H](Cc1ccc(O)cc1)NC(=O)[C@H](CC(=O)O)NC(=O)[C@H](CO)NC(=O)[C@@H](NC(=O)[C@H](Cc1ccccc1)NC(=O)[C@@H](NC(=O)CNC(=O)[C@H](CCC(=O)O)NC(=O)C(C)(C)NC(=O)[C@@H](N)Cc1ccc(O)cc1)[C@@H](C)O)[C@@H](C)O)[C@@H](C)CC)[C@@H](C)CC)C(C)C)C(=O)N[C@@H](C)C(=O)NCC(=O)NCC(=O)N1CCC[C@H]1C(=O)N[C@@H](CO)C(=O)N[C@@H](CO)C(=O)NCC(=O)N[C@@H](C)C(=O)N1CCC[C@H]1C(=O)N1CCC[C@H]1C(=O)N1CCC[C@H]1C(=O)N[C@@H](CO)C(N)=O
treatment-boosted ADA positive subjects (healthy subjects, single ascending dose; 2.5 mg, titre increase ≥4-fold): 16.7%

CC(C)(C)[C@H](NC(=O)C(F)(F)F)C(=O)N1C[C@H]2[C@@H]([C@H]1C(=O)N[C@H](C#N)C[C@@H]1CCNC1=O)C2(C)C
participants with severe adverse events (human, fasted; oral, 1500 mg single dose, 28 days, no ritonavir): 0%
